Measured values gathered from unrelated publications.
“And” joins repeats or separate records; there may be more than shown. ± marks the error that the study gave.
B1: human SND1; sequence looked up; chain ASSAQSGGSSGGPAVPTVQRGIIKMVLSGCAIIVRGQPRGGPPPERQINLSNIRAGNLARRAAATQPDAKDTPDEPWAFPAREFLRKKLIGKEVCFTIENKTPQGREYGMIYLGKDTNGENIAESLVAEGLATRREGMRANNPEQNRLSECEEQAKAAKKGMWSEGNGSHTIRDLKYTIENPRHFVDSHHQKPVNAIIEHVRDGSVVRALLLPDYYLVTVMLSGIKCPTFRREADGSETPEPFAAEAKFFTESRLLQRDVQIILESCHNQNILGTILHPNGNITELLLKEGFARCVDWSIAVYTRGAEKLRAAERFAKERRLRIWRDYVAPTANLDQKDKQFVAKVMQVLNADAIVVKLNSGDYKTIHLSSIRPPRLEGENTQDKNKKLRPLYDIPYMFEAREFLRKKLIGKKVNVTVDYIRPASPATETVPAFSERTCATVTIGGINIAEALVSKGLATVIRYRQDDDQRSSHYDELLAAEARAIKNGKGLHSKKEVPIHRVADISGDTQKAKQFLPFLQRAGRSEAVVEYVFSGSRLKLYLPKETCLITFLLAGIECPRGARNLPGLVQEGEPFSEEATLFTKELVLQREVEVEVESMDKAGNFIGWLHIDGANLSVLLVEHALSKVHFTAERSSYYKSLLSAEEAAKQKKEKVWAHYEEQPVEEVMPVLEEKERSASYKPVFVTEITDDLHFYVQDVETGTQLEKLMENMRNDIASHPPVEGSYAPRRGEFCIAKFVDGEWYRARVEKVESPAKIHVFYIDYGNREVLPSTRLGTLSPAFSTRVLPAQATEYAFAFIQVPQDDDARTDAVDSVVRDIQNTQCLLNVEHLSAGCPHVTLQFADSKGDVGLGLVKEGLVMVEVRKEKQFQKVITEYLNAQESAKSARLNLWRYGDFRADDADEFGYSR
B2: POF1B (human); sequence looked up; chain MSSSYWSETSSSSCGTQQLPEVLQCQPQHYHCYHQSSQAQQPPEKNVVYERVRTYSGPMNKVVQALDPFNSREVLSPLKTTSSYQNLVWSDHSQELHSPTLKISTCAPSTLHITQNTEQELHSPTVKLTTYPQTTIRKYVVQNPEQEPLSQFLRGSHFFPGNNVIYEKTIRKVEKLNTDQGCHPQAQCHHHIIQQPQVIHSAHWQQPDSSQQIQAITGNNPISTHIGNELCHSGSSQICEQVIIQDDGPEKLDPRYFGELLADLSRKNTDLYHCLLEHLQRIGGSKQDFESTDESEDIESLIPKGLSEFTKQQIRYILQMRGMSDKSLRLVLSTFSNIREELGHLQNDMTSLENDKMRLEKDLSFKDTQLKEYEELLASVRANNHQQQQGLQDSSSKCQALEENNLSLRHTLSDMEYRLKELEYCKRNLEQENQNLRMQVSETCTGPMLQAKMDEIGNHYTEMVKNLRMEKDREICRLRSQLNQYHKDVSKREGSCSDFQFKLHELTSLLEEKDSLIKRQSEELSKLRQEIYSSHNQPSTGGRTTITTKKYRTQYPILGLLYDDYEYIPPGSETQTIVIEKTEDKYTCP

Molecule | tested on | test | test system | setting | scale | endpoint | value
colistin | Pseudomonas aeruginosa | – | clinical isolate RKI 47/09 | – | – | MIC | ≤ 0.5 µg/mL
durvalumab | – | – | human, plasma | intravenous, 1500 mg, cycle 1 day 1, geometric mean, together with: adavosertib 200 mg once daily | – | Cmax | 327 µg/mL
human RAD50 | CYB5R4 knockout human cells | PP6 interaction, 3xFLAG-PP6C IP-MS | – | concentration not given | relative to: CYB5R4 KO over parental | log2 fold change | 0.62
human ME2 M75L | – | enzyme activity, NADH absorbance | – | without fumarate, together with: L-malate varied | – | Hill coefficient | 1.68 ± 0.1
maraviroc | – | Western blot, measured: GSK-3β phospho-Tyr216 | mice, NSG hu-PBL, HIV-infected, frontal cortex | i.p., 120 mg/kg twice daily, 3 weeks post infection, normalised to total GSK-3β | relative to: HIV-infected untreated mice, decrease | protein level | 3.8 fold
heparin sodium | – | – | human | intravenous infusion, 8 IU/kg/h, day 1 to 6 | – | aPTT time to Emax | 84 h
VVVGAVGVGK | HLA-A*11:01 peptide-β2M single-chain trimer | western blot, measured: pMHC-I | peptide, 293T cells | 48 h, unit not given, together with: 100 µg/mL cycloheximide | relative to: time zero | remaining protein | 0.835 and 0.814 and 0.818
QGRWDHETIV | construct, MBP fusion, human SCRIB, PDZ 3-4 | surface plasmon resonance | peptide | concentration not given | higher = stronger binding | normalised SPR binding response | 16.5 normalised RU
B1 (human SND1) | CYB5R4 knockout human cells | PP4 interaction, 3xFLAG-PP4C IP-MS | – | concentration not given | relative to: CYB5R4 KO over parental | log2 fold change | -0.81
NRVDSKETEC | construct, MBP fusion, human SCRIB, PDZ 3-4 | automated holdup | peptide, crude extract | concentration not given, uncorrected, unit not given | relative to: biotin control resin, higher = stronger binding | binding intensity | 0.277
Peginesatide | UT7/EPO | phosphorylation, agonist, measured: phospho-STAT5 | – | 10 min | – | EC50 | 0.597 nM
B2 (POF1B) | CYB5R4 knockout human cells | PP6 interaction, 3xFLAG-PP6C IP-MS | – | concentration not given | relative to: CYB5R4 KO over parental | log2 fold change | 2.28
Malic enzyme 2 S106K (human) | – | enzyme activity, activator, NADH absorbance | recombinant enzyme | range over 0 to 5 mM, pH 7.4 | relative to: wild type | activation fold | 1

For quick reference, copied from above:
Molecule | tested on | test | test system | setting | scale | endpoint | value
human RAD50 | CYB5R4 knockout human cells | PP6 interaction, 3xFLAG-PP6C IP-MS | – | concentration not given | relative to: CYB5R4 KO over parental | log2 fold change | 0.62
human ME2 M75L | – | enzyme activity, NADH absorbance | – | without fumarate, together with: L-malate varied | – | Hill coefficient | 1.68 ± 0.1
